# Measured values collected from several papers.
# Every numbered part comes from another study and shows a few of its results, in no order. Changes are numbered by the printed parent chain.

# Block 1 — method: DHFR PCA, deep sequencing; matrix: yeast; together with: (+)-ABA 58 µM; reference: wild-type fitted maximum; direction: higher = stronger binding
# Target: ABI1, truncated, D143A, DHFR fusion (Arabidopsis thaliana)
# Setting: methotrexate growth selection, single substitutions
# Starting sequence: PYL1, truncated, DHFR fusion (Arabidopsis thaliana); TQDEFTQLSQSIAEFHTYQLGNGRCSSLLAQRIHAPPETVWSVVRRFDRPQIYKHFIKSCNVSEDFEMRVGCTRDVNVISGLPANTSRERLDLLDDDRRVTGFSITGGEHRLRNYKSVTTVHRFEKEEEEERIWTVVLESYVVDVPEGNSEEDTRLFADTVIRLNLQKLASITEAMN
Substitution,relative binding score [%]
D95V,19.3
D95M,56.6
L156H,75.3
I162S,6.58
D96E,90.8
G148C,58.1
S9Q,93.4

# Block 2 — target: CCNA1, cyclin fold, Cln2 fusion (human); method: yeast growth competition, sequencing; matrix: yeast; setting: weak parent motif; reference: not given; direction: higher = stronger binding
# Starting sequence: PKN2 docking peptide (human); VSAVQKLDFSDTM; partner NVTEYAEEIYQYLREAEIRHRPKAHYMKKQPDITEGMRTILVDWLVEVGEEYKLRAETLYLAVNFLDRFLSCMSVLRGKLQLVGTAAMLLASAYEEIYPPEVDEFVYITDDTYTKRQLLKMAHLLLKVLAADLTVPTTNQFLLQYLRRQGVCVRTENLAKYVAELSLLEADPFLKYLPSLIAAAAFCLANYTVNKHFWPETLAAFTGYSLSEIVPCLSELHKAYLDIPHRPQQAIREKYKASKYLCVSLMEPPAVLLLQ
Substitution,normalised enrichment score
VSAVQKLDFSKTM [D11K],0.251
VSAVQKLDFSDLM [T12L],0.297
VSAVQKLDFSDMM [T12M],0.0735
VSMVQKLDFSDTM [A3M],0.185
VHAVQKLDFSDTM [S2H],0.134
FSAVQKLDFSDTM [V1F],0.39
VSAVQKLDFWDTM [S10W],0.129
VSAVQKLDFSDRM [T12R],0.13
VSAVQKKDFSDTM [L7K],0.0637
VSAVQKTDFSDTM [L7T],0.0138
VSAPQKLDFSDTM [V4P],-0.051

# Block 3 — method: universal PBM; form: double-stranded DNA, one strand shown; matrix: in vitro; tested at: 600 nM; direction: higher = stronger binding
# Target: Sal-like protein 4, full length isoform A (SALL4, Homo sapiens, UniProt Q9UJQ4, residues 1-1053)
# Sequence of UniProt Q9UJQ4 (whole entry, looked up): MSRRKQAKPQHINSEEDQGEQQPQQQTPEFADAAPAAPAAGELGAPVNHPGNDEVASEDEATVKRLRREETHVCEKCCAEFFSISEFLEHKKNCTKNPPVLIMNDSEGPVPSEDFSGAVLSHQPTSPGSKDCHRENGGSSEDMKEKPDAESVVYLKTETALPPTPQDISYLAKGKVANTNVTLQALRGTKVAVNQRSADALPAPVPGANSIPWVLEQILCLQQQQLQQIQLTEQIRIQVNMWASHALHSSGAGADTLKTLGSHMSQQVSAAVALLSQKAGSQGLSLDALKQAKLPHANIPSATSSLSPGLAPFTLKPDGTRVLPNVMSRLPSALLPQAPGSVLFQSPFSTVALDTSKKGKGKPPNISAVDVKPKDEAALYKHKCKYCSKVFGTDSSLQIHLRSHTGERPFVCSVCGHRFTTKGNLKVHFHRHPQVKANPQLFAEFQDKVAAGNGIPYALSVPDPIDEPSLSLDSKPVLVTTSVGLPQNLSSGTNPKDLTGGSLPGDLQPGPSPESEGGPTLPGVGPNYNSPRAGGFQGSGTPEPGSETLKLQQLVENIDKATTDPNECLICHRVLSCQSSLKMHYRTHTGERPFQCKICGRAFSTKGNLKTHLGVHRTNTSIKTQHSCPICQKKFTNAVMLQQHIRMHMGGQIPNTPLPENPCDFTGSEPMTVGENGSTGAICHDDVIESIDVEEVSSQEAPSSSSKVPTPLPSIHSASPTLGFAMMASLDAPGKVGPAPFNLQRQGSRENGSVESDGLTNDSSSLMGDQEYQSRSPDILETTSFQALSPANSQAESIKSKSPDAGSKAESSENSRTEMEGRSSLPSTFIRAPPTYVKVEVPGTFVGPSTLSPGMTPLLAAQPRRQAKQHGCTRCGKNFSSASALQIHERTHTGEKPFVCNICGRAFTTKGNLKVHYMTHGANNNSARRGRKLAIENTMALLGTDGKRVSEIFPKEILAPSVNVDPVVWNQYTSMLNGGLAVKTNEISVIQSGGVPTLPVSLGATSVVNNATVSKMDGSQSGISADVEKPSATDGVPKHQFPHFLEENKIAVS
# Setting: 8-mer, flanks averaged, mean of replicates
Sequence,E-score
AGTATTAC,0.264
TAAATTGA,0.278
AGAGGAGG,-0.23
ATGGCGTA,-0.0327
ACAATAGC,0.152
GACGATTA,0.185
CGTTAACC,-0.0843
AGCCGAGC,-0.404
ATGTCTAG,0.252
GGTATCTA,0.183
CCGTTGCA,-0.158
CTGGCAAG,-0.079

# Mixed results
Molecule,target,test,test system,conditions,how to read,endpoint,value
"PhoQ, residues 284 288 289 292 302 303 TNASYF","PhoP, residues 12 14 15 18 19 LHSVW (Escherichia coli, UniProt P23836)","Sort-seq, refers to: YFP reporter",E. coli,"PhoQ-PhoP variant library, together with: 10 µM Mg2+","reference: high Mg2+ state, higher = stronger signaling",fold induction,4.29

# Repeated from above (block 1):
Substitution,relative binding score [%]
D95M,56.6
G148C,58.1
